Assay results of several laboratories.
Numbered parts are unrelated; each lists some results of a single study. Substitutions count along the parent as printed.

Study 1
Target: RING finger protein unkempt homolog, zinc fingers 1-6, GST-SBP tag (UNK, Homo sapiens, UniProt Q9C0B0, residues 30-357)
UniProt Q9C0B0, sequence (30-357, looked up): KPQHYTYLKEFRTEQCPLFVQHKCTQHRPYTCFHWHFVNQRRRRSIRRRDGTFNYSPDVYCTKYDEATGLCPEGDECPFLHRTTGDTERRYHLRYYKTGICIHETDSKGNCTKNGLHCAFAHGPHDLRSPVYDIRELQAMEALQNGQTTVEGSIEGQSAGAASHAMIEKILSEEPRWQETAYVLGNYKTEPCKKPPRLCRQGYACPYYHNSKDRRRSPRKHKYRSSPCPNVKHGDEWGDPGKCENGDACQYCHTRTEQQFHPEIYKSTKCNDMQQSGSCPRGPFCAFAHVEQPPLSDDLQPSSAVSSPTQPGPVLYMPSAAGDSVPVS
Method: RNA Bind-n-Seq
Molecule type: RNA
Medium: in vitro
Concentration: not given
Setting: RNA with constant flanks, ends assumed
Reference: input RNA pool
Direction: higher = stronger binding
All sequences stand within: GGGAGUUCUACAGUCCGACGAUC … CAACAGAGGAUUGAGCAUCA
Strand | bound/input enrichment [ratio]
GCGCUGGGGGUAAGGGUUACAAAUAAUGAAUUAAAUCAUAUUGGUCAUUAGGACAGAUGCCCGCUGGCUUUUCUAUUUUAACUGACAAGUCCAGAGCAUAUACAAGUGCAUGAAGUGAGA | 1.28
GCAGAAGGAACUUUGGGGUGCAGCCAGGACCCGGUAGGCCUGAGCCUCAACUCUUCAGAAAACCGUGUUUUUAAUAUUCCUCUUCAGAAAAUAGUGUUUUUAAUAUUCCGAGCUAGAGCU | 10.2
ACCACAAGUGCCACCACCUACCCCACCCCCGGUGGCCGCUGUUCCUCCAACUCCCCAGCCUUCCGCUCCUACACCUUCAGCACCCUGCCCAGCUACUCCUGCUGGACCAAAGGGAAGGGU | 0.246
CUGAACAAAAUUACAAAGAAUCUAGGAUUUGGGAUGGGAAUUGAAUUCCGUGAAGGCUCUCCCGUAAUCAAUAGUAAAAAUCAGUACAAGCUAAAGAAAGGGAUGGUUUUUAGCAUCAAU | 1.94
UUUAUCCAGGGCGAAGCUUUGGACCCGCAGCAUGUCUGCAACCCAGCCAUUUUCAGGCUAACCGCUCGUCAGCUUGCUAAAAUCCAUGCUAUUCAUGCGCACAAUGGCUGGAUCCCCAAA | 0.124
AAAUUUCCUCUCUUAAAGCCUUCUCCAAAAUUGGCAUCUCUUAUAGAUGGUUCAUCUCCUGUCCGUAUUUUGGUCUGGACCACACAACCUUGGACGAUUCCAGCCAAUGAAGCUGUUUGC | 0.304

Study 2
Target: CCNE2, cyclin fold, Cln2 fusion (human)
Method: yeast growth competition, sequencing
Medium: yeast
Setting: strong parent motif
Reference: not given
Direction: higher = stronger binding
Starting sequence: BRCA2 docking peptide (human); PSIKRNLLNEFDR
Substitution | normalised enrichment score
R13D | 0.877
N9R | 2.3
N9D | 1.67
K4M | 0.433
I3V | 4.08
K4L | 0.658

Study 3
Target: Interferon regulatory factor 3, full length, phosphomimetic (IRF3, Homo sapiens, UniProt Q14653, residues 1-427, S386D/S396D/S398D/S402D/T404D/S405D)
Method: protein-binding microarray
Molecule type: double-stranded DNA, one strand shown
Medium: in vitro
Concentration: 2540 nM top
Setting: 60-bp whole probe
Together with: salmon DNA 0.4 mg/ml
Reference: random background probes
Direction: higher = stronger binding
All sequences stand within: GCCTAGCAC … GTCTTGATTCGCTTGACGCTGCTG
Residues (chain): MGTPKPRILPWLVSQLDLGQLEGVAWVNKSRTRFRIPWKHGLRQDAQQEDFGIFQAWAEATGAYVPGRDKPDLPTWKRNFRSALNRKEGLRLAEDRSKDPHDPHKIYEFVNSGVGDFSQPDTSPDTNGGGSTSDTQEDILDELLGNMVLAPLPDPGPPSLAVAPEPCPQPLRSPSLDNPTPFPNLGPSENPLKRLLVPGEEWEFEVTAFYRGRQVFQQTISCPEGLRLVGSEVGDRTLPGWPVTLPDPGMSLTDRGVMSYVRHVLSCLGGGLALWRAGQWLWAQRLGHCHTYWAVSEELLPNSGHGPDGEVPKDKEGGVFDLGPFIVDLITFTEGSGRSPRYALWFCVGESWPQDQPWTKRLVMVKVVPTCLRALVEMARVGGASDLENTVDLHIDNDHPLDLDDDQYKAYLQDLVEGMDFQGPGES
Strand | fitted relative affinity [z-score]
TTAAGTATCGGGTATCGGTTAGTGCTA | 2.17
TTAGGTCTCCGTTTCCTTTAGTGCTAG | 4.56
TCAAACATCTACAATGGCACTGTGCTA | -0.134
GACGATCTCAGACTGGCGACGTGCTAG | 0.501
GACGGTTTCGGGTACCGGGACGTGCTA | 4.18
ATATATATTCATATATATATGTGCTAG | 1.14
TCAGGACTGGGTATCGGTTAGTGCTAG | 0.68
TTAGGGCTGGGGTTTCGGTTAGTGCTA | 2.03
TCAAAACTCTTTATTTAACTGTGCTAG | -0.074

Single results of other studies
Substance | target | test | system | setting | scale | endpoint | value
PhoQ, residues 284 288 289 292 302 303 SACGEM | PhoP, residues 12 14 15 18 19 YHFSH (Escherichia coli, UniProt P23836) | Sort-seq, refers to: YFP reporter | E. coli | PhoQ-PhoP variant library, together with: 10 µM Mg2+ | reference: high Mg2+ state, higher = stronger signaling | fold induction | 10.7

A few entries again (single results of other studies):
Substance | target | test | system | setting | scale | endpoint | value
PhoQ, residues 284 288 289 292 302 303 SACGEM | PhoP, residues 12 14 15 18 19 YHFSH (Escherichia coli, UniProt P23836) | Sort-seq, refers to: YFP reporter | E. coli | PhoQ-PhoP variant library, together with: 10 µM Mg2+ | reference: high Mg2+ state, higher = stronger signaling | fold induction | 10.7
